{"data": "Assay results gathered from unrelated publications", "note": "Every numbered part comes from another study and shows a few of its results, in no order.", "chain of UniProt P41240 (whole entry, looked up)": "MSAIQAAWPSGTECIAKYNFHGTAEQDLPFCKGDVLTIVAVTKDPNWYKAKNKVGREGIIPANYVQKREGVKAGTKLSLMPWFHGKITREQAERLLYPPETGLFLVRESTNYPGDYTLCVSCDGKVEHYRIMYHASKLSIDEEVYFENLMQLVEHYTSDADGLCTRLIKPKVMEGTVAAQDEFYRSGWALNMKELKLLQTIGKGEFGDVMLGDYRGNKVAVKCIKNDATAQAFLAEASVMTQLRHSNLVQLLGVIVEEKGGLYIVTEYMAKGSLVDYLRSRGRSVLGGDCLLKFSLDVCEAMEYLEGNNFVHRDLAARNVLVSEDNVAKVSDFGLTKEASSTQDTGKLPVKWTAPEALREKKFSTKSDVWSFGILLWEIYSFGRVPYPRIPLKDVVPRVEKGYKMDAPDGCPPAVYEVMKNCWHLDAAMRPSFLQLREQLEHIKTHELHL", "chain of UniProt Q9P1W9 (whole entry, looked up)": "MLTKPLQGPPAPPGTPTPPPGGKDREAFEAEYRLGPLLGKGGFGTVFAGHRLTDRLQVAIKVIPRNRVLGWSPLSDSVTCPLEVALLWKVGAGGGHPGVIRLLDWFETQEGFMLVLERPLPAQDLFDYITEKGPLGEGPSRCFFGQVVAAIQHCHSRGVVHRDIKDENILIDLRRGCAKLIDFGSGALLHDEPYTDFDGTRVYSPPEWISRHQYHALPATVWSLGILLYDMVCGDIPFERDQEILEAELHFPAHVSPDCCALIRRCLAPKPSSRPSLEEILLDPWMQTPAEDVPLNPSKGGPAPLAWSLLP", "chain of UniProt Q9BZL6 (whole entry, looked up)": "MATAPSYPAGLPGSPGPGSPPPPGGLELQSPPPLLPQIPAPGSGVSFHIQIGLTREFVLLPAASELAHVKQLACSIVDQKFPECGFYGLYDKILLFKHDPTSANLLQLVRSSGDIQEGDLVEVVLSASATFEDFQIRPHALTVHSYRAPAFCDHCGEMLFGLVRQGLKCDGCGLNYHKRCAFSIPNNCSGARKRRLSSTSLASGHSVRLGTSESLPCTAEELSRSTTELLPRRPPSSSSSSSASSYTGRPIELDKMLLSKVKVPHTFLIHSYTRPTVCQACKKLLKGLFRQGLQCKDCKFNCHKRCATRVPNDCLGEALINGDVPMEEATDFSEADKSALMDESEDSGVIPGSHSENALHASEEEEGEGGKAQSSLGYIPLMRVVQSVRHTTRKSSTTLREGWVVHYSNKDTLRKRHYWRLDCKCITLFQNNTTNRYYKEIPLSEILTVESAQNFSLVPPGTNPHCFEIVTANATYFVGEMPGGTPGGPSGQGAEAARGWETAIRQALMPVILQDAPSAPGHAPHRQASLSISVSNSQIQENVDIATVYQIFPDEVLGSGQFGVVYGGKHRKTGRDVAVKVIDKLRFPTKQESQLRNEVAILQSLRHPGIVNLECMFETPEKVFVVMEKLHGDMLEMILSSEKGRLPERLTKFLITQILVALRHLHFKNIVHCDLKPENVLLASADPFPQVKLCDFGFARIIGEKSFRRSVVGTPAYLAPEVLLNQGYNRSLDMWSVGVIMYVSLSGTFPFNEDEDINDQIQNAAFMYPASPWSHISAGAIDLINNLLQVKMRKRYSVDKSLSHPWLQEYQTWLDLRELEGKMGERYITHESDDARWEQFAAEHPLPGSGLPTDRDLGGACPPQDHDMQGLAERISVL", "chain of UniProt Q13177 (whole entry, looked up)": "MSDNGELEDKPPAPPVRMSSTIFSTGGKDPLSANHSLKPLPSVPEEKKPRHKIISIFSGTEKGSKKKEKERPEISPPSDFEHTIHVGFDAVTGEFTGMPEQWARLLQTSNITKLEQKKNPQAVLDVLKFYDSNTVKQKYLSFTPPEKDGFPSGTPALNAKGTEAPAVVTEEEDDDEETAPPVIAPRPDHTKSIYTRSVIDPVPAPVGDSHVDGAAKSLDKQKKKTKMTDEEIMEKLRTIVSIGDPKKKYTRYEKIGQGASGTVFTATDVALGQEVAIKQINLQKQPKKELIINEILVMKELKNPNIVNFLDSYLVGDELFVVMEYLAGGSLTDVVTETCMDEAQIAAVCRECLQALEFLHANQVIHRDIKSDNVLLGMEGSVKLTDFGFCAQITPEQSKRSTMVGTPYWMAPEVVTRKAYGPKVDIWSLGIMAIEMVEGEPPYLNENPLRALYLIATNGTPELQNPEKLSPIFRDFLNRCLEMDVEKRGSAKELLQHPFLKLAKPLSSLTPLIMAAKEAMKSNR", "chain of UniProt Q15375 (whole entry, looked up)": "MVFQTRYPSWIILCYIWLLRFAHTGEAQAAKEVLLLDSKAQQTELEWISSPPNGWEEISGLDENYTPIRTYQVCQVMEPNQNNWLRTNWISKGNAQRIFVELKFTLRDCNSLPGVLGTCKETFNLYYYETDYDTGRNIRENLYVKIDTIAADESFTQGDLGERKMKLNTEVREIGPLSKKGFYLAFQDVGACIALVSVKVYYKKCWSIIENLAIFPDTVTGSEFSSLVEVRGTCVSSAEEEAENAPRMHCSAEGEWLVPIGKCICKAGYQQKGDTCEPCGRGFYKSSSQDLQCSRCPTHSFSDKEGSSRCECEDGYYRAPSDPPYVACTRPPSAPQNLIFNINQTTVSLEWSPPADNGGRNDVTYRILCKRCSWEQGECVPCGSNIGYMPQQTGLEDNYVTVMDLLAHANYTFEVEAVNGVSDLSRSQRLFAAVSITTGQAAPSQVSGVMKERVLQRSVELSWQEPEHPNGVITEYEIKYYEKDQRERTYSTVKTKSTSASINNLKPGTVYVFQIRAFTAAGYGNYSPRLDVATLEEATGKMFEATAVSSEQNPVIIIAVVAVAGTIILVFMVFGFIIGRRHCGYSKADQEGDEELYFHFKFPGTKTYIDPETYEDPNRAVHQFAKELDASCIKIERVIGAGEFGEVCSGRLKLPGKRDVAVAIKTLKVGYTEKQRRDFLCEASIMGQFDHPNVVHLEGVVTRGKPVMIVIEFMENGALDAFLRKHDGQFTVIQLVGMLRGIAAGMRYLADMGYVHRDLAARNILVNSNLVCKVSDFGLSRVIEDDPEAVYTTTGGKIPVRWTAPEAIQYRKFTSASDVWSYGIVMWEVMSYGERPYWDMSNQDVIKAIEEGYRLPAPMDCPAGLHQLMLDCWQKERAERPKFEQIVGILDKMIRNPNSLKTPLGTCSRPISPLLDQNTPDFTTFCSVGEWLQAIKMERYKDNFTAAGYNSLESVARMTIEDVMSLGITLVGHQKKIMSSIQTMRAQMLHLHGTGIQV", "chain of UniProt Q00526 (whole entry, looked up)": "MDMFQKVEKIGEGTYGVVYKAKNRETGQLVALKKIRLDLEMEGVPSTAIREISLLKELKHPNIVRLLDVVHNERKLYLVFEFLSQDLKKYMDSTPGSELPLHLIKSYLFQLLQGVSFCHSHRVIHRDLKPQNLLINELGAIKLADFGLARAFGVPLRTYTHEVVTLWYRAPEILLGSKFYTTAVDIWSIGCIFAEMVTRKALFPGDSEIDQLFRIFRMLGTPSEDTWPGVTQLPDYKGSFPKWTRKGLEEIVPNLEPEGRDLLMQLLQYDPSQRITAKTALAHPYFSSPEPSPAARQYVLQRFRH"}
{"data": "Series 1", "SMILES": "CN(C)C(=O)Cn1cc(-c2nc(C3(c4ccc(-c5cnc(N)nc5)cc4)CC3)no2)cn1", "effect on": "cell-free assay", "technique": "competition with immobilised ligand", "concentration": "1 µM"}
{"target": "NUAK2 (Homo sapiens, UniProt Q9H093)", "remaining binding": "87%"}
{"target": "Cyclin-dependent kinase 4, with cyclin D1 (CDK4, Homo sapiens, UniProt P11802)", "remaining binding": "44%"}
{"target": "CDK8 (Homo sapiens, UniProt P49336)", "remaining binding": "100%"}
{"target": "NEK1 (Homo sapiens, UniProt Q96PY6)", "remaining binding": "100%"}
{"target": "MAPK10 (Homo sapiens, UniProt P53779)", "remaining binding": "93%"}
{"target": "TGFBR2 (Homo sapiens, UniProt P37173)", "remaining binding": "100%"}
{"target": "Tyrosine-protein kinase JAK2, JH1 (JAK2, Homo sapiens, UniProt O60674)", "remaining binding": "65%"}
{"target": "PHKG1 (Homo sapiens, UniProt Q16816)", "remaining binding": "97%"}
{"target": "MAP3K2 (Homo sapiens, UniProt Q9Y2U5)", "remaining binding": "93%"}
{"target": "CDK3 (Homo sapiens, UniProt Q00526)", "remaining binding": "100%"}
{"target": "PIM2 (Homo sapiens, UniProt Q9P1W9)", "remaining binding": "100%"}
{"target": "EGFR (Homo sapiens, UniProt P00533)", "remaining binding": "93%"}
{"target": "CDK16 (Homo sapiens, UniProt Q00536)", "remaining binding": "80%"}
{"target": "Tyrosine-protein kinase JAK1, JH1 (JAK1, Homo sapiens, UniProt P23458)", "remaining binding": "76%"}
{"target": "GRK4 (Homo sapiens, UniProt P32298)", "remaining binding": "100%"}
{"target": "MAP4K4 (Homo sapiens, UniProt O95819)", "remaining binding": "66%"}
{"target": "MAP3K10 (Homo sapiens, UniProt Q02779)", "remaining binding": "62%"}
{"target": "GRK7 (Homo sapiens, UniProt Q8WTQ7)", "remaining binding": "84%"}
{"target": "PRKD2 (Homo sapiens, UniProt Q9BZL6)", "remaining binding": "89%"}
{"target": "MAPK7 (Homo sapiens, UniProt Q13164)", "remaining binding": "97%"}
{"target": "MAST1 (Homo sapiens, UniProt Q9Y2H9)", "remaining binding": "100%"}
{"target": "EPHA6 (Homo sapiens, UniProt Q9UF33)", "remaining binding": "99%"}
{"target": "TAOK2 (Homo sapiens, UniProt Q9UL54)", "remaining binding": "100%"}
{"target": "PIK3CA (Homo sapiens, UniProt P42336, C420R)", "remaining binding": "95%"}
{"target": "CSK (Homo sapiens, UniProt P41240)", "remaining binding": "100%"}
{"data": "Series 2", "SMILES": "CCCNC(=O)Nc1ccc(Oc2ncnc3cc(OC)c(OC)cc23)cc1Cl", "effect on": "enzyme activity", "mode": "inhibitor", "concentration": "0.5 µM", "baseline": "control"}
{"target": "RPS6KA1 (Homo sapiens, UniProt Q15418)", "remaining activity": "92.3%"}
{"target": "FLT3 (Homo sapiens, UniProt P36888)", "remaining activity": "82.1%"}
{"target": "FGFR4 (Homo sapiens, UniProt P22455)", "remaining activity": "73.9%"}
{"target": "MYLK (Homo sapiens, UniProt Q15746)", "remaining activity": "97.4%"}
{"target": "NUAK1 (Homo sapiens, UniProt O60285)", "remaining activity": "92.3%"}
{"target": "GRK6 (Homo sapiens, UniProt P43250)", "remaining activity": "95%"}
{"target": "EPHA7 (Homo sapiens, UniProt Q15375)", "remaining activity": "86.3%"}
{"target": "RPS6KB1 (Homo sapiens, UniProt P23443)", "remaining activity": "90.6%"}
{"target": "EPHB2 (Homo sapiens, UniProt P29323)", "remaining activity": "90.8%"}
{"target": "GRK2 (Homo sapiens, UniProt P25098)", "remaining activity": "103%"}
{"target": "CSF1R (Homo sapiens, UniProt P07333)", "remaining activity": "51.1%"}
{"target": "GSK3A (Homo sapiens, UniProt P49840)", "remaining activity": "98.8%"}
{"target": "PAK2 (Homo sapiens, UniProt Q13177)", "remaining activity": "81.5%"}
{"target": "SGK1 (Homo sapiens, UniProt O00141)", "remaining activity": "96.2%"}
{"target": "PIM2 (Homo sapiens, UniProt Q9P1W9)", "remaining activity": "101%"}
{"target": "SRPK3 (Homo sapiens, UniProt Q9UPE1)", "remaining activity": "95.8%"}
{"target": "PRKCE (Homo sapiens, UniProt Q02156)", "remaining activity": "96.8%"}
{"target": "BMX (Homo sapiens, UniProt P51813)", "remaining activity": "93.6%"}
{"target": "CSK (Homo sapiens, UniProt P41240)", "remaining activity": "100%"}
{"target": "PRKCG (Homo sapiens, UniProt P05129)", "remaining activity": "120%"}
{"target": "Aurora kinase C (AURKC, Homo sapiens, UniProt Q9UQB9)", "remaining activity": "71.6%"}
{"data": "Series 3", "Structure (SMILES)": "C=CCc1ccc(O)c(-c2ccc(O)c(CC=C)c2)c1", "effect on": "chloride current", "ANO1 del476-501/F628A": "Anoctamin-1 (ANO1, Homo sapiens, UniProt Q5XXA6, del476-501/F628A)", "ANO1 del476-501": "Anoctamin-1 (ANO1, Homo sapiens, UniProt Q5XXA6, del476-501)", "chain of UniProt Q5XXA6 (whole entry, unmodified, looked up)": "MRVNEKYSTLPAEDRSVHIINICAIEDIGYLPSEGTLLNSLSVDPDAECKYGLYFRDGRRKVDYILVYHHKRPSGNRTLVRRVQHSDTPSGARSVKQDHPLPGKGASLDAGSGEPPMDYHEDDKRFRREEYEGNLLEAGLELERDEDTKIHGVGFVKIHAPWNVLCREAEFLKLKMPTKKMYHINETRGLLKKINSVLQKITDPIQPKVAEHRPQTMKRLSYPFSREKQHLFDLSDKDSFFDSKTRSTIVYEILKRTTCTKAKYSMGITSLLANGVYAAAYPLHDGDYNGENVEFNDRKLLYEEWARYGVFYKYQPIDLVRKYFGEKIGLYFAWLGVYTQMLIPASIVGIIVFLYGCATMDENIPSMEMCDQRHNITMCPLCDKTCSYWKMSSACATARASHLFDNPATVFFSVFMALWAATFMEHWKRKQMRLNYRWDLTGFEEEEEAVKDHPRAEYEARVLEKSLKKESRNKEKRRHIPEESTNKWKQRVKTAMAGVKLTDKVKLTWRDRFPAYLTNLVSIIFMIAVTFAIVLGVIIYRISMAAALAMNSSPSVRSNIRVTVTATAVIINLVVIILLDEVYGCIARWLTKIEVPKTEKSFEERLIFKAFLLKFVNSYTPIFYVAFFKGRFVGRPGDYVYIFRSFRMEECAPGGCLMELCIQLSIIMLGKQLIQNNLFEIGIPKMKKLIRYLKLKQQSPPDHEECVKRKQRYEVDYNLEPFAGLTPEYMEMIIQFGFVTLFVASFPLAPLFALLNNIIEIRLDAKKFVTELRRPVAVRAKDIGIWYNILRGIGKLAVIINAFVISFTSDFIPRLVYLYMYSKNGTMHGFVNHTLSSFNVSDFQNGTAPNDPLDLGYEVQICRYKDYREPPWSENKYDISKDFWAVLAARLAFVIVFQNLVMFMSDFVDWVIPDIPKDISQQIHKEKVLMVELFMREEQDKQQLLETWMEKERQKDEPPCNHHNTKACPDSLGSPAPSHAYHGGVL"}
{"target": "ANO1 del476-501/F628A", "technique": "whole-cell voltage clamp", "concentration": "100 µM", "setting": "concentration-response at 60 mV", "together with": "4 µM Ca2+", "normalized current": 0.0857}
{"target": "ANO1 del476-501/F628A", "technique": "whole-cell voltage clamp", "concentration": "1 µM", "setting": "I-V at 0 mV", "together with": "4 µM Ca2+", "normalized current": -0.0053}
{"target": "Anoctamin-1 (ANO1, Homo sapiens, UniProt Q5XXA6)", "technique": "inside-out patch clamp", "concentration": "10 µM", "setting": "membrane voltage 0 mV", "normalized current": -0.0004}
{"target": "Anoctamin-1 (ANO1, Homo sapiens, UniProt Q5XXA6, del476-501/E659A/K629A)", "technique": "inside-out patch clamp", "concentration": "10 µM", "setting": "membrane voltage 0 mV", "normalized current": -0.0012}
{"target": "Anoctamin-1 (ANO1, Homo sapiens, UniProt Q5XXA6, del476-501/E649A)", "mode": "inhibitor", "technique": "inside-out patch clamp", "concentration": "10 µM", "setting": "E623A mutant at -80 mV", "normalized current": -0.563}
{"target": "ANO1 del476-501", "technique": "whole-cell voltage clamp", "concentration": "1 µM", "setting": "wild type, concentration-response at -20 mV", "together with": "4 µM Ca2+", "normalized current": -0.174}
{"target": "Anoctamin-1 (ANO1, Homo sapiens, UniProt Q5XXA6, del476-501/K629A)", "technique": "inside-out patch clamp", "concentration": "10 µM", "setting": "membrane voltage 0 mV", "normalized current": -0.0009}
{"target": "ANO1 del476-501/F628A", "technique": "whole-cell voltage clamp", "concentration": "10 µM", "setting": "I-V at 80 mV", "together with": "4 µM Ca2+", "normalized current": 0.544}
{"target": "ANO1 del476-501/F628A", "technique": "whole-cell voltage clamp", "concentration": "1 µM", "setting": "concentration-response at 40 mV", "together with": "4 µM Ca2+", "normalized current": 0.38}
{"target": "ANO1 del476-501", "technique": "whole-cell voltage clamp", "concentration": "3 µM", "setting": "wild type, I-V at -100 mV", "together with": "4 µM Ca2+", "normalized current": -0.641}
{"target": "Anoctamin-1 (ANO1, Homo sapiens, UniProt Q5XXA6, del476-501/R541A)", "technique": "inside-out patch clamp", "concentration": "10 µM", "setting": "membrane voltage -60 mV", "normalized current": -0.38}
{"target": "ANO1 del476-501/F628A", "technique": "whole-cell voltage clamp", "concentration": "1 µM", "setting": "I-V at -60 mV", "together with": "4 µM Ca2+", "normalized current": -0.46}
{"target": "ANO1 del476-501", "technique": "whole-cell voltage clamp", "concentration": "10 µM", "setting": "wild type, I-V at -20 mV", "together with": "4 µM Ca2+", "normalized current": -0.0561}
{"data": "Series 4", "target": "Beta-1 adrenergic receptor (ADRB1, Homo sapiens, UniProt P08588)", "mode": "agonist", "chain of UniProt P08588 (whole entry, looked up)": "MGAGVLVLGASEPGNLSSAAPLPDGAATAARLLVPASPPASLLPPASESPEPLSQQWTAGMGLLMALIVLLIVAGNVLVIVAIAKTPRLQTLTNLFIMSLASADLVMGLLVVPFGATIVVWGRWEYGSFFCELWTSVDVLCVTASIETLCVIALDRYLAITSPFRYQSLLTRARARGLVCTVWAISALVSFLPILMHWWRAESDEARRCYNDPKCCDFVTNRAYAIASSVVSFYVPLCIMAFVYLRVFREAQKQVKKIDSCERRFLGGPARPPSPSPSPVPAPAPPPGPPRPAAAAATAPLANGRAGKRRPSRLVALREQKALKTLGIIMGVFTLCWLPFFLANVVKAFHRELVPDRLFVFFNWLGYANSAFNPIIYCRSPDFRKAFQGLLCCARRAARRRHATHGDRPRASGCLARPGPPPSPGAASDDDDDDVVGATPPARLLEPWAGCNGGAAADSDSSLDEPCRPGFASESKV"}
{"SMILES": "CCCC(=O)c1cc(F)ccc1OCC(O)CNC(C)(C)C (stereo not shown)", "Emax": "91.2%"}
{"SMILES": "COc1ccccc1N1CCN(CC[C@@H]2CC[C@H](O)[C@@H](C(=O)NC3CCCCC3)O2)CC1", "Emax": "91.8%"}
{"SMILES": "C=CCc1ccccc1OCC(O)CNC(C)C (stereo not shown)", "Emax": "99.7%"}
{"SMILES": "CCc1cc2c(cc1CC)CC(NCC(O)c1ccc(O)c3[nH]c(=O)ccc13)C2 (stereo not shown)", "Emax": "66%"}
{"SMILES": "N#Cc1cc2c(OCC(O)CN3CCN(C(c4ccccc4)c4ccccc4)CC3)cccc2[nH]1 (stereo not shown)", "Emax": "111%"}
{"SMILES": "CCN(CC)C(=O)Nc1ccc(OCC(O)CNC(C)(C)C)c(C(C)=O)c1 (stereo not shown)", "Emax": "87%"}
{"SMILES": "CC(C)(C)NC[C@@H](O)c1ccc(O)c(CO)n1", "Emax": "87.6%"}
{"SMILES": "CN1Cc2sccc2C(c2ccc(O)c(O)c2)C1 (stereo not shown)", "Emax": "72.2%"}
{"note": "Excerpt of the above (series 1):"}
{"target": "CDK3 (Homo sapiens, UniProt Q00526)", "remaining binding": "100%"}
{"target": "PIM2 (Homo sapiens, UniProt Q9P1W9)", "remaining binding": "100%"}
{"target": "EGFR (Homo sapiens, UniProt P00533)", "remaining binding": "93%"}
{"target": "CDK16 (Homo sapiens, UniProt Q00536)", "remaining binding": "80%"}
{"target": "Tyrosine-protein kinase JAK1, JH1 (JAK1, Homo sapiens, UniProt P23458)", "remaining binding": "76%"}
{"target": "GRK4 (Homo sapiens, UniProt P32298)", "remaining binding": "100%"}
{"target": "MAP4K4 (Homo sapiens, UniProt O95819)", "remaining binding": "66%"}
{"target": "MAP3K10 (Homo sapiens, UniProt Q02779)", "remaining binding": "62%"}
{"target": "GRK7 (Homo sapiens, UniProt Q8WTQ7)", "remaining binding": "84%"}
{"target": "PRKD2 (Homo sapiens, UniProt Q9BZL6)", "remaining binding": "89%"}
